Assay results from different studies.
Numbered parts are unrelated; each lists some results of a single study.
Sequence of UniProt Q96SB4 (whole entry, looked up): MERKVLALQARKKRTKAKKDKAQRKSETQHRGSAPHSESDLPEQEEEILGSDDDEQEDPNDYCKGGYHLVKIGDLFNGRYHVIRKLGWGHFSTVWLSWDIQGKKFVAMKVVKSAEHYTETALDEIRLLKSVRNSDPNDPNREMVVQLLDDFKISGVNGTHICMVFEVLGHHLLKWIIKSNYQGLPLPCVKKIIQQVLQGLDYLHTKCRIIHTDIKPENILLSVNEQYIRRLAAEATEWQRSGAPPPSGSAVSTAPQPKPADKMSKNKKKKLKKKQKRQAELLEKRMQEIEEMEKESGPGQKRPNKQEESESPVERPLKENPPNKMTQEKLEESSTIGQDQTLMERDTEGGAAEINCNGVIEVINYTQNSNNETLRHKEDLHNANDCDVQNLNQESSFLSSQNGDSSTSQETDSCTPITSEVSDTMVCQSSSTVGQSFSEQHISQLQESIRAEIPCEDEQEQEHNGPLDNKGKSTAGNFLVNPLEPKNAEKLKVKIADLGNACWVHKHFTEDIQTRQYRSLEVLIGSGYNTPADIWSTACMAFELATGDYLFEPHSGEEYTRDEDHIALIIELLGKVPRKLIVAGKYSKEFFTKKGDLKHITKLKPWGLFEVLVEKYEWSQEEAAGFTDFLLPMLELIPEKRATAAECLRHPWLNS
Sequence of UniProt Q14012 (whole entry, looked up): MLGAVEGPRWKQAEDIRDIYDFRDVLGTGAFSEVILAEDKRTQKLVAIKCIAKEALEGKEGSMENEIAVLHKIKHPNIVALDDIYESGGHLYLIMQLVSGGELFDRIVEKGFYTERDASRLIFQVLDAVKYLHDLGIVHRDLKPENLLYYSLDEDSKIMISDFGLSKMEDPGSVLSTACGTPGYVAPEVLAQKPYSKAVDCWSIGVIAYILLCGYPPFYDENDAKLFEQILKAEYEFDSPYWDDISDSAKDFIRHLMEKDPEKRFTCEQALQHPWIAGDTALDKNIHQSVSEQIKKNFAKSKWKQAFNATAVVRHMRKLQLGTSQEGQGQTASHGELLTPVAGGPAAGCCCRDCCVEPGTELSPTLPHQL
Sequence of UniProt P00519 (whole entry, unmodified, looked up): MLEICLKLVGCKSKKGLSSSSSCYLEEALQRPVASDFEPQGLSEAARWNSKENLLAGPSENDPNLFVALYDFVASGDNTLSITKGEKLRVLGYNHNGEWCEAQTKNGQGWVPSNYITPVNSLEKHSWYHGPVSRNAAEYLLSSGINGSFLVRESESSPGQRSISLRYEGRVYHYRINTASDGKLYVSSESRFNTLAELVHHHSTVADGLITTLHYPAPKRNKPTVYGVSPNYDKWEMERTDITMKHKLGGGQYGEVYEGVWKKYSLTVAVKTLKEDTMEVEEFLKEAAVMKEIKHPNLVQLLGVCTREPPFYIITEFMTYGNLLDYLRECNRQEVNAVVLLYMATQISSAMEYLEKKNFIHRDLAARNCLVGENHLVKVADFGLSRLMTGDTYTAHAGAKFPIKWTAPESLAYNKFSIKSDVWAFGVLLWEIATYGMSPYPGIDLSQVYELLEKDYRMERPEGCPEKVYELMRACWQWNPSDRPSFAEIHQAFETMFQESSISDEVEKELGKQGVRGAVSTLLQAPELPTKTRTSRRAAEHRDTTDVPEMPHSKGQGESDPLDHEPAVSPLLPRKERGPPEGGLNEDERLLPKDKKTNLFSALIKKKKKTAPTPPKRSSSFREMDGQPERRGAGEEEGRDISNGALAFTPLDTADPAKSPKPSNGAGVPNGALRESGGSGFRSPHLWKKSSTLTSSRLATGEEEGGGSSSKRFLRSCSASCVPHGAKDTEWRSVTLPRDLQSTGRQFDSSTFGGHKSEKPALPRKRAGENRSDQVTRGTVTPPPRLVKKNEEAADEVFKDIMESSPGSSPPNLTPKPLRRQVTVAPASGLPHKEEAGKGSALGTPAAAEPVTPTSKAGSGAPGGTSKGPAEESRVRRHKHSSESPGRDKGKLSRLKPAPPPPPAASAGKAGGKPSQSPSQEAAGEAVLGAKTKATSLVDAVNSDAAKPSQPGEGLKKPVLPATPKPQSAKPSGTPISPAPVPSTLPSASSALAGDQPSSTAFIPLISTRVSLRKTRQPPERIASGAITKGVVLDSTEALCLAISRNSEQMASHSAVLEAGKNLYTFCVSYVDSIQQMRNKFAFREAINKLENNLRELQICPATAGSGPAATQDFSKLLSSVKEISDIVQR
Sequence of UniProt Q9NYL2 (whole entry, looked up): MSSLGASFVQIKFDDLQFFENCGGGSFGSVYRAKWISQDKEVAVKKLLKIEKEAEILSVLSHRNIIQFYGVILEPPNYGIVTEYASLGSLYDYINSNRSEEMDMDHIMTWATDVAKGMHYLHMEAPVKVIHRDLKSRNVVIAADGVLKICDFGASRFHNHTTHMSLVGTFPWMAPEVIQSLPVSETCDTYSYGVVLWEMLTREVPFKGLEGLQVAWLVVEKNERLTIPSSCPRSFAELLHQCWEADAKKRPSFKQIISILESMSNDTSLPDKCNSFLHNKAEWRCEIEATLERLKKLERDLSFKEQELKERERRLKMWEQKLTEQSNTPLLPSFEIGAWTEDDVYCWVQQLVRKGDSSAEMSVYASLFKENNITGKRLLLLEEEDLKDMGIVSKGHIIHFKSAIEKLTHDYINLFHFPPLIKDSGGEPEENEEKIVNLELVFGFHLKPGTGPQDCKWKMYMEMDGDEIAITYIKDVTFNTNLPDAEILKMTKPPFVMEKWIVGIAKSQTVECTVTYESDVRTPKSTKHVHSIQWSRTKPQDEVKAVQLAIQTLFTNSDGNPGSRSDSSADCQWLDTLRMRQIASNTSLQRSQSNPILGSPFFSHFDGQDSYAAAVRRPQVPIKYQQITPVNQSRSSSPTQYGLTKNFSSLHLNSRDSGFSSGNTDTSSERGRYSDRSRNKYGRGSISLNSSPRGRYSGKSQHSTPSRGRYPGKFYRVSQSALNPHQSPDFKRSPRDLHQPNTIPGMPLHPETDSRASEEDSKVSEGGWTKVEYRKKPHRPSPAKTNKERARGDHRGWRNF
Sequence of UniProt Q9UF33 (whole entry, looked up): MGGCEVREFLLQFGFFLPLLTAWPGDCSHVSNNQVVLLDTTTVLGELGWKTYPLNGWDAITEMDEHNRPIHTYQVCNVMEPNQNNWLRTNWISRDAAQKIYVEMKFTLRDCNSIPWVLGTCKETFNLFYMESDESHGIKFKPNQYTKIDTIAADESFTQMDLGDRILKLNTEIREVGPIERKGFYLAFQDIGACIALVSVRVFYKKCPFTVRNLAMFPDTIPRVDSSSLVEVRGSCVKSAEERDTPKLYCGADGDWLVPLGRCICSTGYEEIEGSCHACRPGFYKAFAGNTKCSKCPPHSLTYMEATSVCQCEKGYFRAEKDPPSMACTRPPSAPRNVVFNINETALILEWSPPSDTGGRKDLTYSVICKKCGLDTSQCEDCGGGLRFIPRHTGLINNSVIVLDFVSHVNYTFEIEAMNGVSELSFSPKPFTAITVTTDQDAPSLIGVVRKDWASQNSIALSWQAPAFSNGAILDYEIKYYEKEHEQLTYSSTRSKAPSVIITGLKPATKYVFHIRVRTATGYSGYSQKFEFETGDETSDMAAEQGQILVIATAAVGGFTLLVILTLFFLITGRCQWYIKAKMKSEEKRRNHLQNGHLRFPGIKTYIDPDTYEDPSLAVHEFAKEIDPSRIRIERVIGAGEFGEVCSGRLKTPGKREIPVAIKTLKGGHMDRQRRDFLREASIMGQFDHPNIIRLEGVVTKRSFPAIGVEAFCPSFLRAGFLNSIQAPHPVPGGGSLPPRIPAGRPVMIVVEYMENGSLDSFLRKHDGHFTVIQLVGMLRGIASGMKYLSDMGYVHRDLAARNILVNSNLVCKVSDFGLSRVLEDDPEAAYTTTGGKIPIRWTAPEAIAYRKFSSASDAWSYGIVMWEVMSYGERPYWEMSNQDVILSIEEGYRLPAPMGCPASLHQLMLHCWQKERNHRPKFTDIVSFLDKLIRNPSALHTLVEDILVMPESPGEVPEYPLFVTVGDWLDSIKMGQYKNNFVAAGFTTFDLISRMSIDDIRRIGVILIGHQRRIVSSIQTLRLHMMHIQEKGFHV
Sequence of UniProt P49674 (whole entry, looked up): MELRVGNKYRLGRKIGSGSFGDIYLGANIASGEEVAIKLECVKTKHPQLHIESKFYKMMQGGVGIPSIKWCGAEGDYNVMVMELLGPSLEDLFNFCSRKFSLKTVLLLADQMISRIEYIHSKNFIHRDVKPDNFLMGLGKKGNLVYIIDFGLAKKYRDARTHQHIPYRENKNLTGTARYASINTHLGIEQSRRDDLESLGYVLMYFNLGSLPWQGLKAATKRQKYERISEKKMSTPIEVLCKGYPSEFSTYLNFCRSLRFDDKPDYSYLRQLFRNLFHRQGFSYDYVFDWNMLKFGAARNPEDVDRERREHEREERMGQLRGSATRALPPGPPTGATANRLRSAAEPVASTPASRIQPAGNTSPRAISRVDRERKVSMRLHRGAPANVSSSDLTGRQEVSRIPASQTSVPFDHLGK
Sequence of UniProt Q13153 (whole entry, looked up): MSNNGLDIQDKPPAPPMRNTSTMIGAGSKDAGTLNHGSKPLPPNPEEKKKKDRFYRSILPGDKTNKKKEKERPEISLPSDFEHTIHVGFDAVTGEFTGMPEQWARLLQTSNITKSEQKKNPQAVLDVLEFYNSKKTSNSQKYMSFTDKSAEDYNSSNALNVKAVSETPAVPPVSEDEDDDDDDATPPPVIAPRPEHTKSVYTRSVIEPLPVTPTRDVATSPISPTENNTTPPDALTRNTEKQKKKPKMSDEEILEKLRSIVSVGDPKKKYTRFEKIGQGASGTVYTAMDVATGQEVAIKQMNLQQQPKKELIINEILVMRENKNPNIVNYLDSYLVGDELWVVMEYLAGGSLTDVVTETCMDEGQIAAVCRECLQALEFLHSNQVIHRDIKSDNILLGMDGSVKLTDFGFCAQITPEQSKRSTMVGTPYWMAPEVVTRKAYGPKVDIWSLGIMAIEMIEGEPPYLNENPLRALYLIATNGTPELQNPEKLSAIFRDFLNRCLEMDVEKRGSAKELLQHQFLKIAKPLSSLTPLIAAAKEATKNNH

Series 1 — host: human; sample: microsomes or S9; tested at: 2 µM; time: 0.5 h
Compound	remaining compound [%]
Cc1cc2c(nc1C)sc1c(=O)n(C(C)C)cnc12	9.8
COCCN(Cc1ccc(C)c(Br)c1)C(=O)Cn1cnc(S(=O)(=O)N2CCCC2)c1	68.1
COc1cc2c(c(Br)c1OC)CN(c1cc(C(=O)O)ccc1C)C2=O	> 99
COc1cc(OC)c(CC2C(=O)N(c3ccccc3)c3ccccc32)c(OC)c1 (stereo not shown)	< 1
Cn1c(=O)c2cc(C(=O)O)c(=O)n(C)c2n(C)c1=O	77.4
Nc1nc(N2CCc3ccccc3C2)nc2ccccc12	47
O=S(=O)(/C(=C(\F)Oc1ccccc1)c1ccccc1)c1ccccc1	12.4

Series 2 — SMILES: Nc1ncnc2c1cnn2-c1ccccc1; read-out: enzyme activity; action: inhibitor; tested at: 0.5 µM; reference: control
target	remaining activity [%]
RPS6KA3 (Homo sapiens, UniProt P51812)	95
EPHA6 (Homo sapiens, UniProt Q9UF33)	83.2
CAMK1 (Homo sapiens, UniProt Q14012)	97.5
CAMKK1 (Homo sapiens, UniProt Q8N5S9)	84.8
FLT1 (Homo sapiens, UniProt P17948)	88.5
PRKCQ (Homo sapiens, UniProt Q04759)	102
MAP3K20 (Homo sapiens, UniProt Q9NYL2)	92.5
PRKCZ (Homo sapiens, UniProt Q05513)	96.3
PAK1 (Homo sapiens, UniProt Q13153)	94.2
Cyclin-dependent kinase 2, with cyclin E (CDK2, Homo sapiens, UniProt P24941)	93.9
SGK2 (Homo sapiens, UniProt Q9HBY8)	98.4
PAK6 (Homo sapiens, UniProt Q9NQU5)	100
TYRO3 (Homo sapiens, UniProt Q06418)	102
TEC (Homo sapiens, UniProt P42680)	103
MUSK (Homo sapiens, UniProt O15146)	88
SIK2 (Homo sapiens, UniProt Q9H0K1)	99.8
IGF1R (Homo sapiens, UniProt P08069)	96.4
JAK1 (Homo sapiens, UniProt P23458)	98.1
SRPK1 (Homo sapiens, UniProt Q96SB4)	98.1
CLK2 (Homo sapiens, UniProt P49760)	91.4
CSNK1E (Homo sapiens, UniProt P49674)	81.5

Series 3 — technique: competition with immobilised ligand; tested at: 1 µM
SMILES: CN(c1ccnc(CNc2nc(Nc3ccc4c(c3)CC(=O)N4)ncc2C(F)(F)F)n1)S(C)(=O)=O
target	read-out	remaining binding
Tyrosine-protein kinase ABL1, non-phosphorylated (ABL1, Homo sapiens, UniProt P00519, F317L)	cell-free assay	71%
AKT2 (Homo sapiens, UniProt P31751)	cell-free assay	82%
PIK3CA (Homo sapiens, UniProt P42336, Q546K)	cell-free assay	93%
EPHA8 (Homo sapiens, UniProt P29322)	cell-free assay	100%
SRPK1 (Homo sapiens, UniProt Q96SB4)	cell-free assay	17%
HCK (Homo sapiens, UniProt P08631)	cell-free assay	100%
MET (Homo sapiens, UniProt P08581, Y1235D)	cell-free assay	10%
TXK (Homo sapiens, UniProt P42681)	binding	91%
STK10 (Homo sapiens, UniProt O94804)	cell-free assay	100%
MYLK2 (Homo sapiens, UniProt Q9H1R3)	cell-free assay	53%
Ribosomal protein S6 kinase alpha-6, C-terminal kinase domain (RPS6KA6, Homo sapiens, UniProt Q9UK32)	cell-free assay	79%
SRC (Homo sapiens, UniProt P12931)	cell-free assay	60%
MAP3K19 (Homo sapiens, UniProt Q56UN5)	cell-free assay	0.4%
TAOK3 (Homo sapiens, UniProt Q9H2K8)	cell-free assay	12%
FLT3 (Homo sapiens, UniProt P36888, D835V/ITD)	cell-free assay	0.7%
MAP2K4 (Homo sapiens, UniProt P45985)	cell-free assay	23%
STK32C (Homo sapiens, UniProt Q86UX6)	cell-free assay	76%

Series 4 — cell line: HaCaT; tested at: 100 µM; time: 18 h
SMILES	viability [%]
COC(=O)/C=C/C(=O)OC	108
O=C(CCCN1CC=C(n2c(=O)[nH]c3ccccc32)CC1)c1ccc(F)cc1	54.1
NC(CO)C(=O)NNCc1ccc(O)c(O)c1O (stereo not shown)	92.7
COC(=O)C1=C(C)NC(C)=C(C(=O)O[C@@H]2CCCN(Cc3ccccc3)C2)[C@@H]1c1cccc([N+](=O)[O-])c1 (racemic)	48
CC(C(=O)O)c1cccc(Oc2ccccc2)c1 (stereo not shown)	90.3
COC(c1ccccc1)(c1ccccc1)[C@H](Oc1nc(C)cc(C)n1)C(=O)O	114
Cc1oncc1C(=O)Nc1ccc(C(F)(F)F)cc1	68.9

Repeated from above (series 4):
SMILES	viability [%]
COC(=O)C1=C(C)NC(C)=C(C(=O)O[C@@H]2CCCN(Cc3ccccc3)C2)[C@@H]1c1cccc([N+](=O)[O-])c1 (racemic)	48
CC(C(=O)O)c1cccc(Oc2ccccc2)c1 (stereo not shown)	90.3
COC(c1ccccc1)(c1ccccc1)[C@H](Oc1nc(C)cc(C)n1)C(=O)O	114
Cc1oncc1C(=O)Nc1ccc(C(F)(F)F)cc1	68.9
